Experimental data collected from several papers.
Each line is one published result; not all experiments were run side by side. ± gives the spread as reported.

`N=C(N)NCCC[C@@H]1NC(=O)[C@H](CCCCNC(=O)CNC(=O)CNC(=O)CNC(=O)CC[C@H](NC(=O)c2ccc(NN=Cc3ccccc3S(=O)(=O)O)nc2)C(=O)NCC(=O)NCC(=O)NCC(=O)NCCCC[C@@H]2NC(=O)[C@@H](Cc3ccccc3)NC(=O)[C@H](CC(=O)O)NC(=O)CNC(=O)[C@H](CCCNC(=N)N)NC2=O)NC(=O)[C@@H](Cc2ccccc2)NC(=O)[C@H](CC(=O)O)NC(=O)CNC1=O` [technetium-99m labelled] gave a tissue uptake of 2.68 ± 0.46 %ID/g (athymic nu/nu mouse, female, MDA-MB-435 xenograft, liver; intravenous, 120 min).
`CCCC[C@H](NC(=O)CCCCCCCNC(=O)c1ccc(NN)nc1)C(=O)N[C@H]1CC(=O)NCCCC[C@@H](C(N)=O)NC(=O)[C@H](Cc2c[nH]c3ccccc23)NC(=O)[C@H](CCCNC(=N)N)NC(=O)[C@@H](Cc2ccccc2)NC(=O)[C@H](Cc2c[nH]cn2)NC1=O` [technetium-99m labelled] gave a tissue uptake of 0.91 ± 0.06 %ID/g (C57 mouse, B16/F1 melanoma, lung; 2 h, added: NDP-MSH 10 µg (6.07 nmol) co-injected).
`CSCC[C@H](NC(=O)[C@H](CC(C)C)NC(=O)[C@H](Cc1c[nH]cn1)NC(=O)CNC(=O)[C@@H](NC(=O)[C@H](C)NC(=O)[C@H](Cc1c[nH]c2ccccc12)NC(=O)[C@H](CCC(N)=O)NC(=O)CCCCNC(=O)CSCCSCCP(CO)CO)C(C)C)C(N)=O` [technetium-99m labelled] has a tissue uptake of 0.15 %ID/g (female CF-1 mouse, whole blood; intravenous, 4 h).
`C[C@@H](O)[C@H](NC(=O)[C@@H]1CSSC[C@H](NC(=O)[C@@H](Cc2ccccc2)NC(=O)CN2CCCN3CCN(CCCN(CP(=O)(O)O)CC3)CC2)C(=O)N[C@@H](Cc2ccc(O)cc2)C(=O)N[C@H](Cc2c[nH]c3ccccc23)C(=O)N[C@@H](CCCCN)C(=O)N[C@@H]([C@@H](C)O)C(=O)N1)C(=O)O` [copper-64 labelled] gave a tissue uptake of 0.7 ± 0.09 %ID/g (Lewis rat, male, tumour-bearing, tumor; injection, 4 h, added: Y3-TATE 200 µg co-injected).
`N=C(N)NCCC[C@@H]1NC(=O)[C@H](CCCCNC(=O)CCOCCOCCOCCOCCNC(=O)CC[C@H](NC(=O)CCOCCOCCOCCOCCNC(=O)CC[C@H](NC(=O)CN2CCN(CC(=O)O)CCN(CC(=O)O)CCN(CC(=O)O)CC2)C(=O)NCCOCCOCCOCCOCCC(=O)N[C@@H](CCC(=O)NCCOCCOCCOCCOCCC(=O)NCCCC[C@@H]2NC(=O)[C@@H](Cc3ccccc3)NC(=O)[C@H](CC(=O)O)NC(=O)CNC(=O)[C@H](CCCNC(=N)N)NC2=O)C(=O)NCCOCCOCCOCCOCCC(=O)NCCCC[C@@H]2NC(=O)[C@@H](Cc3ccccc3)NC(=O)[C@H](CC(=O)O)NC(=O)CNC(=O)[C@H](CCCNC(=N)N)NC2=O)C(=O)NCCOCCOCCOCCOCCC(=O)NCCCC[C@@H]2NC(=O)[C@@H](Cc3ccccc3)NC(=O)[C@H](CC(=O)O)NC(=O)CNC(=O)[C@H](CCCNC(=N)N)NC2=O)NC(=O)[C@@H](Cc2ccccc2)NC(=O)[C@H](CC(=O)O)NC(=O)CNC1=O` [indium-111 labelled] gave a tissue uptake of 1.04 ± 0.2 %ID/g (female athymic nude mice, muscle; intravenous, 3 µCi, 1 h, U-87 MG glioma xenograft).
`N=C(N)NCCC[C@@H]1NC(=O)[C@H](CC(=O)NC23CNCCNCC(N)(CNCCNC2)CNCCNC3)NC(=O)[C@@H](Cc2ccccc2)NC(=O)[C@H](CC(=O)O)NC(=O)CNC1=O` [copper-64 labelled] gave a tissue uptake of 0.13 ± 0.03 %ID/g (Nu/Nu mouse, male, tumour-bearing, muscle; intravenous, 10 µCi, 24 h).
`N=C(N)NCCC[C@@H]1NC(=O)[C@H](CCCCNC(=O)CCOCCOCCOCCOCCNC(=O)CN2CCN(CC(=O)O)CCN(CC(=O)O)CCN(CC(=O)O)CC2)NC(=O)[C@@H](Cc2ccccc2)NC(=O)[C@H](CC(=O)O)NC(=O)CNC1=O` [indium-111 labelled] has a tissue uptake of 1.2 ± 0.35 %ID/g (female athymic nude mice, muscle; intravenous, 3 µCi, 0.5 h, U-87 MG glioma xenograft).
The tissue uptake of `CCCC[C@H](NC(=O)CNC(=O)CNC(=O)c1ccc(NN)nc1)C(=O)N[C@H]1CC(=O)NCCCC[C@@H](C(N)=O)NC(=O)[C@H](Cc2c[nH]c3ccccc23)NC(=O)[C@H](CCCNC(=N)N)NC(=O)[C@@H](Cc2ccccc2)NC(=O)[C@H](Cc2c[nH]cn2)NC1=O` [technetium-99m labelled] is reported as 0.07 ± 0.03 %ID/g (C57 mouse, B16/F1 melanoma-bearing, pancreas; intravenous, 4 h).
`N=C(N)NCCC[C@@H]1NC(=O)[C@H](CCCCNC(=O)CNC(=O)CNC(=O)CNC(=O)CC[C@H](NC(=O)CCOCCOCCOCCOCCNC(=O)CC[C@H](NC(=O)CN2CCN(CC(=O)O)CCN(CC(=O)O)CCN(CC(=O)O)CC2)C(=O)NCCOCCOCCOCCOCCC(=O)N[C@@H](CCC(=O)NCC(=O)NCC(=O)NCC(=O)NCCCC[C@@H]2NC(=O)[C@@H](Cc3ccccc3)NC(=O)[C@H](CC(=O)O)NC(=O)CNC(=O)[C@H](CCCNC(=N)N)NC2=O)C(=O)NCC(=O)NCC(=O)NCC(=O)NCCCC[C@@H]2NC(=O)[C@@H](Cc3ccccc3)NC(=O)[C@H](CC(=O)O)NC(=O)CNC(=O)[C@H](CCCNC(=N)N)NC2=O)C(=O)NCC(=O)NCC(=O)NCC(=O)NCCCC[C@@H]2NC(=O)[C@@H](Cc3ccccc3)NC(=O)[C@H](CC(=O)O)NC(=O)CNC(=O)[C@H](CCCNC(=N)N)NC2=O)NC(=O)[C@@H](Cc2ccccc2)NC(=O)[C@H](CC(=O)O)NC(=O)CNC1=O` [indium-111 labelled] gave a tissue uptake of 2.38 ± 0.28 %ID/g (female athymic nude mice, lungs; intravenous, 3 µCi, 1 h, U-87 MG glioma xenograft).
For `CSCC[C@H](NC(=O)[C@H](CC(C)C)NC(=O)[C@H](Cc1c[nH]cn1)NC(=O)CNC(=O)[C@@H](NC(=O)[C@H](C)NC(=O)[C@H](Cc1c[nH]c2ccccc12)NC(=O)[C@H](CCC(N)=O)NC(=O)CCCCCNC(=O)CNC(=O)CNC(=O)CNC(=O)CSC(C)=O)C(C)C)C(N)=O` [technetium-99m labelled], the tissue uptake was 0.09 ± 0.02 %ID/g (nude mouse, PC-3 xenograft, heart; 90 min, added: excess unlabelled conjugate).

For quick reference, copied from above:
`C[C@@H](O)[C@H](NC(=O)[C@@H]1CSSC[C@H](NC(=O)[C@@H](Cc2ccccc2)NC(=O)CN2CCCN3CCN(CCCN(CP(=O)(O)O)CC3)CC2)C(=O)N[C@@H](Cc2ccc(O)cc2)C(=O)N[C@H](Cc2c[nH]c3ccccc23)C(=O)N[C@@H](CCCCN)C(=O)N[C@@H]([C@@H](C)O)C(=O)N1)C(=O)O` [copper-64 labelled] gave a tissue uptake of 0.7 ± 0.09 %ID/g (Lewis rat, male, tumour-bearing, tumor; injection, 4 h, added: Y3-TATE 200 µg co-injected).
`N=C(N)NCCC[C@@H]1NC(=O)[C@H](CCCCNC(=O)CCOCCOCCOCCOCCNC(=O)CC[C@H](NC(=O)CCOCCOCCOCCOCCNC(=O)CC[C@H](NC(=O)CN2CCN(CC(=O)O)CCN(CC(=O)O)CCN(CC(=O)O)CC2)C(=O)NCCOCCOCCOCCOCCC(=O)N[C@@H](CCC(=O)NCCOCCOCCOCCOCCC(=O)NCCCC[C@@H]2NC(=O)[C@@H](Cc3ccccc3)NC(=O)[C@H](CC(=O)O)NC(=O)CNC(=O)[C@H](CCCNC(=N)N)NC2=O)C(=O)NCCOCCOCCOCCOCCC(=O)NCCCC[C@@H]2NC(=O)[C@@H](Cc3ccccc3)NC(=O)[C@H](CC(=O)O)NC(=O)CNC(=O)[C@H](CCCNC(=N)N)NC2=O)C(=O)NCCOCCOCCOCCOCCC(=O)NCCCC[C@@H]2NC(=O)[C@@H](Cc3ccccc3)NC(=O)[C@H](CC(=O)O)NC(=O)CNC(=O)[C@H](CCCNC(=N)N)NC2=O)NC(=O)[C@@H](Cc2ccccc2)NC(=O)[C@H](CC(=O)O)NC(=O)CNC1=O` [indium-111 labelled] gave a tissue uptake of 1.04 ± 0.2 %ID/g (female athymic nude mice, muscle; intravenous, 3 µCi, 1 h, U-87 MG glioma xenograft).
